Measured values collected from several papers.
Each numbered part is a random draw from the data of one study; scales do not carry over between parts.
Sequence of UniProt O75460 (whole entry, looked up): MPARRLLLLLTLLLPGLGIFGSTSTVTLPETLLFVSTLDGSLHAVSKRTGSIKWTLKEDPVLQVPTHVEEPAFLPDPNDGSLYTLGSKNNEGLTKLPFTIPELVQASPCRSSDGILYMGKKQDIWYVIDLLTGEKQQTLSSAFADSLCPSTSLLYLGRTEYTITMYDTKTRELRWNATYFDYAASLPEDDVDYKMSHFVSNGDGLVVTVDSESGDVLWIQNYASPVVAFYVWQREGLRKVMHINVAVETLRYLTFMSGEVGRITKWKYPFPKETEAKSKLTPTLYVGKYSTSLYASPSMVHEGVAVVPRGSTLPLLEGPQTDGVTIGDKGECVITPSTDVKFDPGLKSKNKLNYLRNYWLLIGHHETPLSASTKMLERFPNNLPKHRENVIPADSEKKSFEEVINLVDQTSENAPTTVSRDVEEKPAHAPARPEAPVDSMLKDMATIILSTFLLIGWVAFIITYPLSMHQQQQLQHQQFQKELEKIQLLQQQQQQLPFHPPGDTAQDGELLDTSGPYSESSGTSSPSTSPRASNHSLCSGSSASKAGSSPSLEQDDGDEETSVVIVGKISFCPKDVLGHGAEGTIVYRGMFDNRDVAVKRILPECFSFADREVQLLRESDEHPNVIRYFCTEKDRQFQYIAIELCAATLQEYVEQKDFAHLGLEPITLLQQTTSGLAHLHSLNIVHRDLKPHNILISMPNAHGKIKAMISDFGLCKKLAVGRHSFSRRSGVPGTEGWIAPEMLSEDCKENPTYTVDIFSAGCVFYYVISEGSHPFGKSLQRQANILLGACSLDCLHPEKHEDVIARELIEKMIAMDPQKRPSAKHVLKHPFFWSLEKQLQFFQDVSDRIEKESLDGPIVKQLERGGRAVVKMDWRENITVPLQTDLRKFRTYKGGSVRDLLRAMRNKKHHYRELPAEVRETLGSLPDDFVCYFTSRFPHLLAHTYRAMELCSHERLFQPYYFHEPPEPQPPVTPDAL
Sequence of UniProt P32298 (whole entry, looked up): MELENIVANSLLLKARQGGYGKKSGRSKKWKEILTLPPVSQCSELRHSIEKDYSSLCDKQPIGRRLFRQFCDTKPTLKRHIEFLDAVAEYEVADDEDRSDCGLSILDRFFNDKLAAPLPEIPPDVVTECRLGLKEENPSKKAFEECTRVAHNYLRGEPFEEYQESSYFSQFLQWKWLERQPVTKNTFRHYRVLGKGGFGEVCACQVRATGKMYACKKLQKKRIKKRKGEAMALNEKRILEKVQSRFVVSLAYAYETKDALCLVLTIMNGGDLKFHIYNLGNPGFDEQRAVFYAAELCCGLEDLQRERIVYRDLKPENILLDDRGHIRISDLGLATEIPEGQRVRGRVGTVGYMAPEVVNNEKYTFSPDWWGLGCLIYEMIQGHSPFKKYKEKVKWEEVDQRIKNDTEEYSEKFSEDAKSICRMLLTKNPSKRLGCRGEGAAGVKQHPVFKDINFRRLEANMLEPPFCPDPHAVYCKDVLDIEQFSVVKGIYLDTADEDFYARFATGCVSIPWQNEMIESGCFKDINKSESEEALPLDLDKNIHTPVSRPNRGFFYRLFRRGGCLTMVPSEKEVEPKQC
Sequence of UniProt Q15569 (whole entry, looked up): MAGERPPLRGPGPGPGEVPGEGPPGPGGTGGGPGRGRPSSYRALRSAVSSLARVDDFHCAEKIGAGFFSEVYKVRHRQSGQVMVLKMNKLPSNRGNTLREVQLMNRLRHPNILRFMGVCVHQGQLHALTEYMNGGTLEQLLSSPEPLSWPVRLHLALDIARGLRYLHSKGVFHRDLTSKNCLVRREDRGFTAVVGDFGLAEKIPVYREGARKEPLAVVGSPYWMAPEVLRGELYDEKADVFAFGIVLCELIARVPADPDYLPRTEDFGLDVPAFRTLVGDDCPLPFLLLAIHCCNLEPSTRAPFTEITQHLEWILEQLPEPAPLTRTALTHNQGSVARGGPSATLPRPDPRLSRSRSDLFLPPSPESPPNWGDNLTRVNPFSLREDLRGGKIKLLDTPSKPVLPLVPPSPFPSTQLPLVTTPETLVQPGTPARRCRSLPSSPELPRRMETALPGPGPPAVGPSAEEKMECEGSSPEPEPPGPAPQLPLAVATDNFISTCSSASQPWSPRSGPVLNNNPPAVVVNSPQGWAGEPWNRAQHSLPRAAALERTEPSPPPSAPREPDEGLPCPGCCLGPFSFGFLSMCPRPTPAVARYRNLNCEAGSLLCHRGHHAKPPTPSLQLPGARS
Sequence of UniProt P11802 (whole entry, looked up): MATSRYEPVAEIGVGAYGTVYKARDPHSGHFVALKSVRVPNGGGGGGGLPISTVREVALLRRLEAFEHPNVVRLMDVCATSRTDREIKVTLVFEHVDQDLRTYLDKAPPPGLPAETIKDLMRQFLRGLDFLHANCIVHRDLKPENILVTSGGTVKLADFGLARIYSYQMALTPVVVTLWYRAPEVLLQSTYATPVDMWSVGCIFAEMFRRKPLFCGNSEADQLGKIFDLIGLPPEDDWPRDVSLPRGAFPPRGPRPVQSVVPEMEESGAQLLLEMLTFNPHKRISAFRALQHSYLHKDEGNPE
Sequence of UniProt Q9BVS4 (whole entry, looked up): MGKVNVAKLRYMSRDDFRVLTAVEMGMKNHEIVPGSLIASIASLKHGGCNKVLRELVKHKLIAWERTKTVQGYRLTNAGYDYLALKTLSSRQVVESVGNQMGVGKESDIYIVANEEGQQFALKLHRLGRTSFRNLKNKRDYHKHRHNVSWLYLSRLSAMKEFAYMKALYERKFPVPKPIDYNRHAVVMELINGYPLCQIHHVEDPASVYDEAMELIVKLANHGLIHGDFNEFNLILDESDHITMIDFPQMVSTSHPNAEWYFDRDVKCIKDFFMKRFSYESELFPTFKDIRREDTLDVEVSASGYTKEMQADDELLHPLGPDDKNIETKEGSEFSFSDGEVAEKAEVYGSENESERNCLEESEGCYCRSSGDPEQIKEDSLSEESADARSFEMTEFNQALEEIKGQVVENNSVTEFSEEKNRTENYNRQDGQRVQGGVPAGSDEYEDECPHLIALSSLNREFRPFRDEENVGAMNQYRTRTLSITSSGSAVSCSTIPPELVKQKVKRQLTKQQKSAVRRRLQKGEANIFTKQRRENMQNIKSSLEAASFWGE
Sequence of UniProt Q13546 (whole entry, looked up): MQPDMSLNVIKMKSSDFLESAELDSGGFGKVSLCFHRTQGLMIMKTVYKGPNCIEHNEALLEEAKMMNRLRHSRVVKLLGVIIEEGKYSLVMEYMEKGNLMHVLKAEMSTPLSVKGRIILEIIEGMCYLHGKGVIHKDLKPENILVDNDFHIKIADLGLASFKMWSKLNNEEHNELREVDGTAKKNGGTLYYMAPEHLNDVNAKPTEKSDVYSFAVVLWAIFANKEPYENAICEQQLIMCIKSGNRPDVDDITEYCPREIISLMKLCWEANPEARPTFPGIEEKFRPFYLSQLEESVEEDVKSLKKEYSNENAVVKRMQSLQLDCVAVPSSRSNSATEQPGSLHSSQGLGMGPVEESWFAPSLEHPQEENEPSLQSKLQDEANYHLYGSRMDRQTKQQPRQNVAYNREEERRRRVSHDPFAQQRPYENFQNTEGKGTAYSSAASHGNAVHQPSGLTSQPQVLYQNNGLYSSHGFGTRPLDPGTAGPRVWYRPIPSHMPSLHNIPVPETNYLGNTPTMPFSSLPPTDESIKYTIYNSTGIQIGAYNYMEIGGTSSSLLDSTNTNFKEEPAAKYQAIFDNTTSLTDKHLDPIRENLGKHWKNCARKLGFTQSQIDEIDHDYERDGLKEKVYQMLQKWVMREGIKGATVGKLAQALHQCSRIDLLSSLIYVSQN

Block 1
Target: RNA binding protein fox-1 homolog 2, RRM domain, GST-SBP tag (RBFOX2, Homo sapiens, UniProt O43251-10, residues 100-194)
Technique: RNA Bind-n-Seq
Molecule type: RNA
Medium: in vitro
Tested at: 365 nM
Notes: natural RNA segment, single round, ends assumed
Relative to: no-protein control
Direction: higher = stronger binding
Measurement: RBNS enrichment (R)
Residues (chain): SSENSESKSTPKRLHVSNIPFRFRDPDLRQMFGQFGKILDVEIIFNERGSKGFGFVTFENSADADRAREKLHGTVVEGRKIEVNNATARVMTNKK
Strand = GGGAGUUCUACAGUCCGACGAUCUUGCCAGUCCUUGGAAGAAGAGUUCAUCUGGGUCUGAUUGACUGUAGAGAUUUGACACGUUCAUAAAGCUGCUUCCUGUCUGUCUUAGGUCUAUAUCAUAGACCUUGACUUGGAAUUCUCGGGUGCCAA; value = 0.282
Strand = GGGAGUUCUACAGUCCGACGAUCGGCAGACAUGGCCCACAUCAGUGGCCUGGUGGCUGCCAAGGUGAUUCCCUCGCCUUUCAAGCACGCGGACAUCGUCACCACCACUACUCACAAGACUCUUCGAGGGGCCAUGGAAUUCUCGGGUGCCAA; value = 0.669
Strand = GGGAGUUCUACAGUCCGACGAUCCCUGAAUAUUUCCAGUGCCUACCUGUGGUCUGUCCAGUUCUGGCCUGUAAGCCCUUCCCUAUCAGAGACAGUUGCAGAGUAGAGGAUAUUGAGGGGUUGAGGGGUUGAUCUGGAAUUCUCGGGUGCCAA; value = 0.568
Strand = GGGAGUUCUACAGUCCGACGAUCAAUAGCUGAAUGUAAAUAGCAGGGAGGAAGAAGCAAGCAAAGUGAGAGCUUUUCUUCAUCCAGAAUUGCCCUCUGGGCUCCUUUGGUAACAGAUGGAGCUCCUUCCUAGCUGGAAUUCUCGGGUGCCAA; value = 0.728
Strand = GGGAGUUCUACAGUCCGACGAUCUCAUAGACCUUUUCAUUAUGAUACUGUAUCUUGCAUAGUUGAAUCUUCUCAUUUAUACAGUGCCUUUUUCUCAUGCUCAUUGUCUACUGACUUUAAGGCAGGCAACACUGUGGAAUUCUCGGGUGCCAA; value = 0.398
Strand = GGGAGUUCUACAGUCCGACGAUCUAGACAAGAUAAAUUUUGCCUCCCCAUGAGAUUUAUAGUGCUGAAGCCCUCUGUCACUUGACACCCUUCUAGCCUUGUUGGAAGGGUUUUCAGGGAGAUGGGGGCACUAUUGGAAUUCUCGGGUGCCAA; value = 0.606
Strand = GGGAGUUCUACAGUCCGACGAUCAUUAUAUUCUAAUGCUAAAUCACUUGGCAAGAGUGUAUUUUAAUGAUGCCUAAUUUCUCUAUGUUCUGUUUGAAGGUUUCUGUCCAGAUAAAAUUGUCUUUUGAAAUUCAUGGAAUUCUCGGGUGCCAA; value = 0.525
Strand = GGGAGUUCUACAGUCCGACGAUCCCCCCUGCCGGACCAGGAGGCUCCCACAGACACGGCCUUCCACAGAGCGCGGUACAGCUGGGCCCAGCCCUGGAGAACCUCUCUUGUCCCAAGGAGCUUCGUGAACUGGCUGGAAUUCUCGGGUGCCAA; value = 0.282

Block 2
Species: mouse
Medium: microsomes or S9
Tested at: 2 µM
Time: 0.5 h
Measurement: remaining compound
SMILES = O=C(C1CCc2n[nH]c(=O)n2C1)N1CCc2ccc(F)c(F)c2C1 (stereo not drawn); value = 79.5%
SMILES = C/C(=C\COc1ccc2ccc(=O)oc2c1)CC[C@H]1C(C)(C)[C@@H](O)CC[C@@]1(C)O; value = 36.1%
SMILES = O=S(=O)(c1ccc(F)cc1Cl)N1CC[C@H]2[C@H](C1)OCc1cnnn12; value = 55.7%
SMILES = COc1ccc(Cl)cc1NC(=O)c1cc2c(=O)oc3ccccc3c2n1C; value = 36.8%

Block 3
SMILES: CNC(=O)c1ccc(Nc2ncc(C(F)(F)F)c(NCc3nccnc3N(C)S(C)(=O)=O)n2)cc1
Effect on: cell-free assay
Technique: competition with immobilised ligand
Tested at: 0.1 µM
Measurement: remaining binding
target = KIT (Homo sapiens, UniProt P10721, A829P); value = 85%
target = RIPK1 (Homo sapiens, UniProt Q13546); value = 100%
target = RET (Homo sapiens, UniProt P07949, M918T); value = 72%
target = Cyclin-dependent kinase 4, with cyclin D3 (CDK4, Homo sapiens, UniProt P11802); value = 100%
target = TBK1 (Homo sapiens, UniProt Q9UHD2); value = 75%
target = EPHA7 (Homo sapiens, UniProt Q15375); value = 68%
target = GRK4 (Homo sapiens, UniProt P32298); value = 98%
target = EGFR (Homo sapiens, UniProt P00533, G719C); value = 94%
target = TESK1 (Homo sapiens, UniProt Q15569); value = 96%
target = ERN1 (Homo sapiens, UniProt O75460); value = 75%
target = STK39 (Homo sapiens, UniProt Q9UEW8); value = 100%
target = RIOK2 (Homo sapiens, UniProt Q9BVS4); value = 85%
target = EGFR (Homo sapiens, UniProt P00533, A750P/del747-749); value = 97%

Block 4
Target: Sal-like protein 4, full length isoform A (SALL4, Homo sapiens, UniProt Q9UJQ4, residues 1-1053)
Sequence of UniProt Q9UJQ4 (whole entry, looked up): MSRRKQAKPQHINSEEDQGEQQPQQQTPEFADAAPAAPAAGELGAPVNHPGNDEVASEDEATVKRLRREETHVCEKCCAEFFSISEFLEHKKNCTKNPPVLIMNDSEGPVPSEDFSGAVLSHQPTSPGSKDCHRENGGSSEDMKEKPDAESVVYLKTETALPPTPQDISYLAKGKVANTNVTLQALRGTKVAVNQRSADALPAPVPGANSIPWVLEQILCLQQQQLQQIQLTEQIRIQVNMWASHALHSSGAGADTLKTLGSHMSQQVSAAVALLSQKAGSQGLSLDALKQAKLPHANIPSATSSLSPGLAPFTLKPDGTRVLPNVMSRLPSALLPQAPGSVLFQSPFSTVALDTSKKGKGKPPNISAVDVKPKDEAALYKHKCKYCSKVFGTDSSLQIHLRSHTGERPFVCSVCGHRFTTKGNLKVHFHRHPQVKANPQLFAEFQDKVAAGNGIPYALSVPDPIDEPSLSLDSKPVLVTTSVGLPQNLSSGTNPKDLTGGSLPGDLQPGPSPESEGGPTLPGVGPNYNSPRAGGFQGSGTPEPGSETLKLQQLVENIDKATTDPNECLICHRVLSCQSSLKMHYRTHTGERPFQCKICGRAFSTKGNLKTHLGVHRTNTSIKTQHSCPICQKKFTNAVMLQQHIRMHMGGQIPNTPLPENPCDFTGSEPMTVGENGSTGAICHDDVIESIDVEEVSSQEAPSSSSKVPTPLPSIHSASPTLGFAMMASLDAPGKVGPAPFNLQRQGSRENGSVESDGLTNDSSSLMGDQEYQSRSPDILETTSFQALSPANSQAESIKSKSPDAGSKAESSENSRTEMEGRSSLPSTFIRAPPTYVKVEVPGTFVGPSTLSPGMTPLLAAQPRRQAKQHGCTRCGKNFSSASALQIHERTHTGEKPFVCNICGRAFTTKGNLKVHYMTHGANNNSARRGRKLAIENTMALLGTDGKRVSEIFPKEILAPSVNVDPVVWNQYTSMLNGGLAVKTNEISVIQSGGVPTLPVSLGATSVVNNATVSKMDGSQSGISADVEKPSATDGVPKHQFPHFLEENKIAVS
Technique: universal PBM
Molecule type: double-stranded DNA, one strand shown
Medium: in vitro
Tested at: 600 nM
Notes: 8-mer, flanks averaged, mean of replicates
Direction: higher = stronger binding
Measurement: E-score
Strand = ACACCTTA; value = 0.0623
Strand = CAGGTAAG; value = -0.0167
Strand = ACACCGAC; value = -0.213
Strand = CCCTTTAG; value = -0.185
Strand = GATAGCGC; value = -0.0866
Strand = GCCATGAC; value = -0.136
Strand = AACACATG; value = 0.121
Strand = ACATTACT; value = 0.235

Excerpt of the above (block 2):
SMILES = O=S(=O)(c1ccc(F)cc1Cl)N1CC[C@H]2[C@H](C1)OCc1cnnn12; value = 55.7%
SMILES = C/C(=C\COc1ccc2ccc(=O)oc2c1)CC[C@H]1C(C)(C)[C@@H](O)CC[C@@]1(C)O; value = 36.1%
SMILES = O=C(C1CCc2n[nH]c(=O)n2C1)N1CCc2ccc(F)c(F)c2C1 (stereo not drawn); value = 79.5%
SMILES = COc1ccc(Cl)cc1NC(=O)c1cc2c(=O)oc3ccccc3c2n1C; value = 36.8%
